Literature values, collected from citations in different studies.
Lines come from different studies, so protocols differ. ≈ marks a conversion by molar mass, not a printed value.
CYP3A4: Cytochrome P450 3A4 (CYP3A4, Homo sapiens, UniProt P08684)
Sequence of UniProt P08684 (whole entry, looked up): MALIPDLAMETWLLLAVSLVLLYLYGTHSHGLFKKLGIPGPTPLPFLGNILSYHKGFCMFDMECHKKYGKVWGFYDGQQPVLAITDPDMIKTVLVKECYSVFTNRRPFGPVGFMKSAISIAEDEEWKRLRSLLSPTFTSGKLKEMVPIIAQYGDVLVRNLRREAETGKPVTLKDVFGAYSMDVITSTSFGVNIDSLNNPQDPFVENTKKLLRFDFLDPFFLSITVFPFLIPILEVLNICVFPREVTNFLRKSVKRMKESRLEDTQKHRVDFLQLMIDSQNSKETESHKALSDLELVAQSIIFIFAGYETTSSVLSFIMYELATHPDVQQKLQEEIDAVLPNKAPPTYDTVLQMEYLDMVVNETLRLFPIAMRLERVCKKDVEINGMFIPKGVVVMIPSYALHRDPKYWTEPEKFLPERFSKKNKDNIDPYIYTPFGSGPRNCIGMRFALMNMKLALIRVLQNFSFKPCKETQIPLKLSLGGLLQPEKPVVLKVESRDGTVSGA
Sequence of UniProt P08183 (whole entry, looked up): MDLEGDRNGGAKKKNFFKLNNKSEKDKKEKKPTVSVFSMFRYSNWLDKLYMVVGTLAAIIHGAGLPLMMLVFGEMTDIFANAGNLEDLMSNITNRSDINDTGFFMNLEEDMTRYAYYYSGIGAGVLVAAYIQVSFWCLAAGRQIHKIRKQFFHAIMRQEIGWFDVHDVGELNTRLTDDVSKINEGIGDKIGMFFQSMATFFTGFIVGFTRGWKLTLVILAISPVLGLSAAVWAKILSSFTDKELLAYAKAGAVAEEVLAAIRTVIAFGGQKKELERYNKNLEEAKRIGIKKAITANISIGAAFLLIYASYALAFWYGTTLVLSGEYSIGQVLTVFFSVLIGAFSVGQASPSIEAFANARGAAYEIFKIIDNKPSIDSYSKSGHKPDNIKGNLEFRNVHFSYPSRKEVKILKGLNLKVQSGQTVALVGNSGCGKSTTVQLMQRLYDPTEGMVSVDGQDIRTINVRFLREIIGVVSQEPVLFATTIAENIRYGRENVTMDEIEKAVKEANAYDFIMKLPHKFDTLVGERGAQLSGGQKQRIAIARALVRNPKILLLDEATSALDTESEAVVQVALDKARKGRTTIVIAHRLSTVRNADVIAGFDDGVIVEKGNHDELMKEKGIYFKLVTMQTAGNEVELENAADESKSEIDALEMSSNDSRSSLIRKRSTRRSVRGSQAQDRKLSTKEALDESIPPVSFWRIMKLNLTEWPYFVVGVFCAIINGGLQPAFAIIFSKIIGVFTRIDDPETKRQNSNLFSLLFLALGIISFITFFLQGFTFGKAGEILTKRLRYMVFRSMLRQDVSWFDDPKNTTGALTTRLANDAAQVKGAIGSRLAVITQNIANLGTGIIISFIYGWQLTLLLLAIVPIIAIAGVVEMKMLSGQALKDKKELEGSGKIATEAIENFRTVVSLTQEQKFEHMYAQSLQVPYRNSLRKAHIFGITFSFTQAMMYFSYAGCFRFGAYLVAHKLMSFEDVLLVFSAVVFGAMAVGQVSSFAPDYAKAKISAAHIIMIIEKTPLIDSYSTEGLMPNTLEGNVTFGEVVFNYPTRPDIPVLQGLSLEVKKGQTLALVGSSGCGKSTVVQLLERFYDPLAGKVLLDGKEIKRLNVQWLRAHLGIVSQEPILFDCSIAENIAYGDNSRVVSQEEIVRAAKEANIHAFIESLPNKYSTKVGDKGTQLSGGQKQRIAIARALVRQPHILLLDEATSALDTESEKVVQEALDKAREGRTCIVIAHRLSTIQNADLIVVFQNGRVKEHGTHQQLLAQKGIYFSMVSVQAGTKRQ
Sequence of UniProt P10632 (whole entry, looked up): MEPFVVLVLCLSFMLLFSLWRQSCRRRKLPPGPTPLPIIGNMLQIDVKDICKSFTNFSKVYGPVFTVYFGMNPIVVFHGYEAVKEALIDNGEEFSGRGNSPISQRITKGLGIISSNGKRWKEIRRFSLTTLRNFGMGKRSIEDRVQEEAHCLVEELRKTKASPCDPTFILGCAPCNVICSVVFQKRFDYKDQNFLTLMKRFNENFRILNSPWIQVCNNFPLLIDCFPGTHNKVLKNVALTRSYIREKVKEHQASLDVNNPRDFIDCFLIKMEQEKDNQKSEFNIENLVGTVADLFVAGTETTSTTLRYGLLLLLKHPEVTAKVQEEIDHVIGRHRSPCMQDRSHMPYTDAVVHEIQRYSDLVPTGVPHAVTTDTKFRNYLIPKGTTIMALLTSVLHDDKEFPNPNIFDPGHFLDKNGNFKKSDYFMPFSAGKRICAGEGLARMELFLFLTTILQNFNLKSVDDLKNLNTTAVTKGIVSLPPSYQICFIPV
Sequence of UniProt Q9UPE1 (whole entry, looked up): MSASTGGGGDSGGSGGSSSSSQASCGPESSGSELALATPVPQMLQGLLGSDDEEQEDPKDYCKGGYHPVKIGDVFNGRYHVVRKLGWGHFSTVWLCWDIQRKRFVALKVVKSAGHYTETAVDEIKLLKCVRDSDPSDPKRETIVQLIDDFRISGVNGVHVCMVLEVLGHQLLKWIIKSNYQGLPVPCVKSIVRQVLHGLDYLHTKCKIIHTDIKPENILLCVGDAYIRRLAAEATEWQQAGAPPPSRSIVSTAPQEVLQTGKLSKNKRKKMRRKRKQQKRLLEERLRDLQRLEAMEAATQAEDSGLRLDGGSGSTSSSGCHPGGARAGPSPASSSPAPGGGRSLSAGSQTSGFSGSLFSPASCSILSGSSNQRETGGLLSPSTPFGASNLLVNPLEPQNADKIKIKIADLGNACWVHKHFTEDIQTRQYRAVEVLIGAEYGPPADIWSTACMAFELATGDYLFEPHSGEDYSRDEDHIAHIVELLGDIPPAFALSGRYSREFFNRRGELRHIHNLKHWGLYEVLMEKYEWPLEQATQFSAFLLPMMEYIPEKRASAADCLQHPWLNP
Sequence of UniProt Q06278 (whole entry, looked up): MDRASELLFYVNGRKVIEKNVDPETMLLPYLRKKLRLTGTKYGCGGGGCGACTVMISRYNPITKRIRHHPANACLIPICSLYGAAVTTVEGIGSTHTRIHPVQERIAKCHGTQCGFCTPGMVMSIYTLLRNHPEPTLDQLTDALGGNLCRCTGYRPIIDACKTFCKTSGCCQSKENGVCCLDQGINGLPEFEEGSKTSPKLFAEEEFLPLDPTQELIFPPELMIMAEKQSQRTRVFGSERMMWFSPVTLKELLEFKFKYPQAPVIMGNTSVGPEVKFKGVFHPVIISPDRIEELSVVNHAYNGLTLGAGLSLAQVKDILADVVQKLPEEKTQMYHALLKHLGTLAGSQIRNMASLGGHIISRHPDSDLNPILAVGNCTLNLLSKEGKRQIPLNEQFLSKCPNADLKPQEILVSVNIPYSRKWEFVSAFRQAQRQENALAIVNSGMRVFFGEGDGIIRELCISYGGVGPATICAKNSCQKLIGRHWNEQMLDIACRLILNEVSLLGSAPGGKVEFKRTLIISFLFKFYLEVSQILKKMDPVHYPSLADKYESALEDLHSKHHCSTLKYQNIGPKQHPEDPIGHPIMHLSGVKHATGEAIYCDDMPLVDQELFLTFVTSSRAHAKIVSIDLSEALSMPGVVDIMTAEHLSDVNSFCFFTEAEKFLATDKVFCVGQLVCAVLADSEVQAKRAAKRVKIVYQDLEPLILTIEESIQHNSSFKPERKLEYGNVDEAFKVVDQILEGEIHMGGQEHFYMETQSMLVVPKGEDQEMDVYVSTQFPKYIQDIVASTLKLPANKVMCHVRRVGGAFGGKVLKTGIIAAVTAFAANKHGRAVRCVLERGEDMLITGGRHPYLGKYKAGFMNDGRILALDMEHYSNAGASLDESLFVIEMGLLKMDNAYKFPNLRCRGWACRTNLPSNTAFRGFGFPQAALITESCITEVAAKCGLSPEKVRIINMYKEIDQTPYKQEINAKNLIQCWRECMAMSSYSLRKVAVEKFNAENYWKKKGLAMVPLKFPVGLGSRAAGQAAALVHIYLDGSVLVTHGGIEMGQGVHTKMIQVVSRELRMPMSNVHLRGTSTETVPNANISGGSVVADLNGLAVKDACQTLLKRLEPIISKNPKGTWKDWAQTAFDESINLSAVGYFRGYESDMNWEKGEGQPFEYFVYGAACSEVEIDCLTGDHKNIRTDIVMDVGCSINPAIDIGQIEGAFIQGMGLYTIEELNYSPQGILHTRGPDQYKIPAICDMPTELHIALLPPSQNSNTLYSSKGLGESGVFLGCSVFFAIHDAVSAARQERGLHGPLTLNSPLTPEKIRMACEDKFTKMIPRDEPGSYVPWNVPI

O=C1Nc2ccc(Cl)cc2[C@@](C#CC2CC2)(C(F)(F)F)O1  intrinsic clearance (3A4; Simcyp compound file): 0.01 µL/min/pmol
COC(=O)[C@H](c1ccccc1Cl)N1CCc2sccc2C1  Ki (OATP1B1): 1.98 µM
CC(C)n1c(=O)n(C)c2cnc3cc(F)c(-c4ccc(OCCCN5CCCCC5)nc4)cc3c21  half-life (Aldehyde oxidase (Homo sapiens, UniProt Q06278); substrate; human liver cytosol): 3.32 h
Nc1cc(C(F)(F)F)c(-c2nc(N3CCOCC3)nc(N3CCOCC3)n2)cn1  remaining activity (SRPK3 (Homo sapiens, UniProt Q9UPE1); enzyme activity; 10 µM; relative to: untreated): 77%
Cc1nccn1CC1CCc2c(c3ccccc3n2C)C1=O (centres unmarked)  brain distribution increase (P-gp; P-gp deficient mice; relative to: wild type): 4 fold
C[C@]1(c2nc3c(C(N)=O)cccc3[nH]2)CCCN1  plasma exposure increase (OCT1/2; OCT1/2 double-knockout mice; relative to: wild type): 1.5 fold
CNCc1cn(S(=O)(=O)c2cccc(F)c2)c(-c2ccc(F)cc2F)c1OC  IC50 (MATE1; transporter uptake): 0.76 µM
C[C@H]1CN(C2COC2)CCN1c1ccc(Nc2cc(-c3ccnc(N4CCn5c(cc6c5CC(C)(C)C6)C4=O)c3CO)cn(C)c2=O)nc1  IC50 (OATP1B3 (SLCO1B3) OATP1B3; literature geometric mean): 7.15 µM
N#Cc1ccc(C(c2ccc(C#N)cc2)n2cncn2)cc1  Ki (CYP2A6 (human); inhibitor): 0.12 µM
CNC(C)C1CCC(N)C(OC2C(N)CC(N)C(OC3OCC(C)(O)C(NC)C3O)C2O)O1 (centres unmarked)  MIC (Klebsiella pneumoniae; clinical isolate RKI-No_328/16): 4 µg/mL (≈ 8.38 µM)
N[C@@H]1c2cccnc2[C@H](OC(=O)N2CCC(n3c(=O)[nH]c4ncccc43)CC2)CC[C@H]1c1cccc(F)c1F  IC50 (CYP1A2 (human); human liver microsomes): > 40 µM
Cc1ncc([N+](=O)[O-])n1CCO  Km (CYP2A6; substrate): 289 µM
CO[C@H]1/C=C/O[C@@]2(C)Oc3c(C)c(O)c4c(O)c(c(/C=N/N5CCN(C)CC5)c(O)c4c3C2=O)NC(=O)/C(C)=C\C=C\[C@H](C)[C@H](O)[C@@H](C)[C@@H](O)[C@@H](C)[C@H](OC(C)=O)[C@@H]1C  Ki (OATP1B1 (human); competitive inhibitor): 0.48 µM
C=C[C@@H]1C[C@]1(NC(=O)[C@@H]1C[C@@H]2CN1C(=O)[C@H](C(C)(C)C)NC(=O)O[C@@H]1C[C@H]1CCCCCc1nc3ccc(OC)cc3nc1O2)C(=O)NS(=O)(=O)C1CC1  IC50 (OATP1B3; literature maximum): 2.91 µM
C=CC(=O)Nc1cc(Nc2nccc(-c3cn(C)c4ccccc34)n2)c(OC)cc1N(C)CCN(C)C  metabolism contribution (CYP2E1): 3%
C[C@H]1O[C@@H](O[C@H]2[C@@H](O)C[C@H](O[C@H]3[C@@H](O)C[C@H](O[C@H]4CC[C@@]5(C)[C@H](CC[C@@H]6[C@@H]5C[C@@H](O)[C@]5(C)[C@@H](C7=CC(=O)OC7)CC[C@]65O)C4)O[C@@H]3C)O[C@@H]2C)C[C@H](O)[C@@H]1O  efflux ratio (ABCB1 (Homo sapiens, UniProt P08183); substrate; cells, human jejunal crypt-derived): > 20
Cc1ccc(C)c(OCCCC(C)(C)C(=O)O)c1  IC50 (OATP1B3; literature minimum): 10 µM
COC(=O)N[C@@H](C)CNc1nccc(-c2cn(C(C)C)nc2-c2cc(Cl)cc(NS(C)(=O)=O)c2F)n1  contribution to metabolism (CYP3A (human); human; human ADME study): 83%
CCC(C)n1ncn(-c2ccc(N3CCN(c4ccc(OCC5COC(Cn6cncn6)(c6ccc(Cl)cc6Cl)O5)cc4)CC3)cc2)c1=O (centres unmarked)  IC50 (OATP1B3; literature maximum): 4 µM
C=CC(=O)Nc1cc(Nc2nccc(-c3cn(C)c4ccccc34)n2)c(OCC(F)(F)F)nc1N(C)CCNC  EC50 (CYP3A4; enzyme induction, inducer; in vitro): 0.33 µM
COc1cc(O)c(CC=C(C)C)c2c1C(=O)CC(c1ccc(O)cc1)O2 (centres unmarked)  inhibition (recombinant CYP1A2 (human); enzyme activity, inhibitor; 10 µM, with: acetanilide): > 90%
CC(O)c1cc(C(=O)N[C@@H](C)Cn2ccc(-c3ccc(C#N)c(Cl)c3)n2)[nH]n1 (some centres unmarked)  IC50 (OATP1B3 (SLCO1B3) OATP1B1; literature geometric mean): 7.99 µM
CO[C@H]1C[C@@H]2CC[C@@H](C)[C@@](O)(O2)C(=O)C(=O)N2CCCC[C@H]2C(=O)O[C@H]([C@H](C)C[C@@H]2CC[C@@H](O)[C@H](OC)C2)CC(=O)[C@H](C)/C=C(\C)[C@@H](O)[C@@H](OC)C(=O)[C@H](C)C[C@H](C)/C=C/C=C/C=C/1C  fraction unbound in incubation (Cytochrome P450 2C8 (CYP2C8, Homo sapiens, UniProt P10632); recombinant enzyme incubation): 0.43
COC[C@H]1C[C@@H](c2ncc(-c3ccc4c(c3)COc3cc5c(ccc6nc([C@@H]7CC[C@H](C)N7C(=O)[C@@H](NC(=O)OC)C(C)C)[nH]c65)cc3-4)[nH]2)N(C(=O)[C@H](NC(=O)OC)c2ccccc2)C1  IC50 (OATP1B3 (SLCO1B3) OATP1B1; literature geometric mean): 1.64 µM
CC(=O)Nc1ccc(O)cc1  Vmax (UGT1A1): 6530 pmol/min/mg protein
CC1(C)S[C@@H]2[C@H](NC(=O)[C@H](N)c3ccccc3)C(=O)N2[C@H]1C(=O)O  MIC (Klebsiella pneumoniae; clinical isolate RKI-No_544/13): > 16 µg/mL
CCc1c2c(nc3ccc(OC(=O)N4CCC(N5CCCCC5)CC4)cc13)-c1cc3c(c(=O)n1C2)COC(=O)[C@]3(O)CC  CYP inhibition (cytochrome P450 isoenzymes; concentration not given): no inhibition
CN(C)C(=N)N=C(N)N  CLint (MATE; human liver failure patients): 300 mL/min
Cc1oncc1C(=O)Nc1ccc(C(F)(F)F)cc1  AC50 (PXR; receptor activation, agonist, Tox21 HTS): 14.8 µM
C=C[C@@H]1C[C@]1(NC(=O)[C@@H]1C[C@@H]2CN1C(=O)[C@H](C(C)(C)C)NC(=O)O[C@@H]1C[C@H]1CCCCCc1nc3ccc(OC)cc3nc1O2)C(=O)NS(=O)(=O)C1CC1  IC50 (human MRP2; uptake, inhibitor; membrane vesicles; with: ethacrynic acid glutathione conjugate): 2.5 µM
O=C(O)CN1CCNCCN(CC(=O)O)CCN(CC(=O)O)CC1  log KH1 (protonation constant; 0.15 M NaCl): 10.1
Cc1ccc(C)c(OCCCC(C)(C)C(=O)O[C@@H]2O[C@H](C(=O)O)[C@@H](O)[C@H](O)[C@H]2O)c1  IC50 (OATP1B3 (SLCO1B3) OATP1B3; literature geometric mean): 74 µM
CO[C@H]1/C=C/O[C@@]2(C)Oc3c(C)c(O)c4c(O)c(c(/C=N/N5CCN(C)CC5)c(O)c4c3C2=O)NC(=O)/C(C)=C\C=C\[C@H](C)[C@H](O)[C@@H](C)[C@@H](O)[C@@H](C)[C@H](OC(C)=O)[C@@H]1C  EC50 (CYP2C19 human; enzyme induction, inducer): 0.45 µM
O=C(O)CN1CCN(CC(=O)O)CCN(CC(=O)O)CCN(CC(=O)O)CC1  log K (Cu(II); stability constant): 22.2
CN/C(=N/CCSCc1nc[nH]c1C)NC#N  Km (ABCC4; substrate): 18.2 µM
CC(=O)C(C)n1ncn(-c2ccc(N3CCN(c4ccc(OC[C@H]5CO[C@](Cn6cncn6)(c6ccc(Cl)cc6Cl)O5)cc4)CC3)cc2)c1=O (some centres unmarked)  kcat (CYP3A4; substrate): 0.0065 s⁻¹
C[C@H]1COCCN1c1nc(-c2cnc(N)cc2C(F)F)nc(N2CCOCC2)n1  GI50 (KU812): 0.39 µM
C#C[C@]1(O)CC[C@H]2[C@@H]3CCc4cc(O)ccc4[C@H]3CC[C@@]21C  Vmax (UGT1A1; substrate; human liver microsomes): 408 pmol/min/mg protein

A few entries again:
Cc1ncc([N+](=O)[O-])n1CCO  Km (CYP2A6; substrate): 289 µM
CNC(C)C1CCC(N)C(OC2C(N)CC(N)C(OC3OCC(C)(O)C(NC)C3O)C2O)O1 (centres unmarked)  MIC (Klebsiella pneumoniae; clinical isolate RKI-No_328/16): 4 µg/mL (≈ 8.38 µM)
O=C1Nc2ccc(Cl)cc2[C@@](C#CC2CC2)(C(F)(F)F)O1  intrinsic clearance (3A4; Simcyp compound file): 0.01 µL/min/pmol
C[C@]1(c2nc3c(C(N)=O)cccc3[nH]2)CCCN1  plasma exposure increase (OCT1/2; OCT1/2 double-knockout mice; relative to: wild type): 1.5 fold
COC[C@H]1C[C@@H](c2ncc(-c3ccc4c(c3)COc3cc5c(ccc6nc([C@@H]7CC[C@H](C)N7C(=O)[C@@H](NC(=O)OC)C(C)C)[nH]c65)cc3-4)[nH]2)N(C(=O)[C@H](NC(=O)OC)c2ccccc2)C1  IC50 (OATP1B3 (SLCO1B3) OATP1B1; literature geometric mean): 1.64 µM
Cc1ccc(C)c(OCCCC(C)(C)C(=O)O[C@@H]2O[C@H](C(=O)O)[C@@H](O)[C@H](O)[C@H]2O)c1  IC50 (OATP1B3 (SLCO1B3) OATP1B3; literature geometric mean): 74 µM
